Measurements pooled from the literature.
Every numbered part comes from another study and shows a few of its results, in no order. Positions count from the first letter of the parent shown.

Set 1
Target: Histone acetyltransferase KAT6A, both winged helices, GST fusion (KAT6A, Homo sapiens, UniProt Q92794, residues 1-181)
Method: protein binding microarray
Form: double-stranded DNA, one strand shown
Medium: in vitro
Tested at: not given
Notes: 8-mer, flanks averaged, mean of 2 arrays, mostly near background
Relative to: not given
Direction: higher = stronger binding
Measurement: E-score
Construct (chain): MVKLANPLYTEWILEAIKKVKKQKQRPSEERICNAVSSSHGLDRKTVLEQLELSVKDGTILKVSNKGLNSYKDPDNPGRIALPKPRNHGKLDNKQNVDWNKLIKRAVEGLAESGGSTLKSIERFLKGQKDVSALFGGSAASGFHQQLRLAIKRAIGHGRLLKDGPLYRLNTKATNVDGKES
CTTGGCTA: -0.235
ACCCACAG: -0.187
ACGAGTCC: 0.0111
AACAGTTC: 0.117
CACCCGTG: 0.156
TTGTTAAA: -0.0117
AGATGAAA: -0.0392
GTACACAA: 0.0268
ACTGGAGA: -0.0765
ACTAAACA: -0.16

Set 2
Target: PABPC1L2, full length, GST fusion (mouse, UniProt A0ABA7IW68)
Method: RNAcompete
Form: RNA
Medium: in vitro
Tested at: 20 nM
Notes: 7-mer, probes averaged, single round
Relative to: mean of 7-mers
Direction: higher = stronger binding
Measurement: 7-mer Z-score
Construct (chain): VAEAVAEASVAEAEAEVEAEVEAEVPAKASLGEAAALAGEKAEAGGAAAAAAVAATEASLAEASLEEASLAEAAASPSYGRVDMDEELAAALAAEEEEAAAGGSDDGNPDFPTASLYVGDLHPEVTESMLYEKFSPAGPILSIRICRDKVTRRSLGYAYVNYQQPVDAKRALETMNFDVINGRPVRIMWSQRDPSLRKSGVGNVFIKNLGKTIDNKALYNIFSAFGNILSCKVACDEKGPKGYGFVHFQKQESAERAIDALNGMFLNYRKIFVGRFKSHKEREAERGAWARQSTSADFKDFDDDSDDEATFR
UGGGUGG: 0.0587
UUUGUUC: -0.49
GAUGCAU: -0.237
UGCUUUC: -0.393
CGAGGCG: -0.0156
GAUAAAC: 1.33
AGGGCAA: 0.678
GAACACU: -0.0464
GGACAAA: 1.72
CGCUUGG: -0.166
CCUUUGA: -0.0808
GCAUCAC: 0.0478

Set 3
Target: CCNE2, cyclin fold, Cln2 fusion (human)
Method: yeast growth competition, sequencing
Medium: yeast
Notes: weak parent motif
Relative to: not given
Direction: higher = stronger binding
Measurement: normalised enrichment score
Starting sequence: CDC6 docking peptide (human); TLKGRRLVFDNQL; partner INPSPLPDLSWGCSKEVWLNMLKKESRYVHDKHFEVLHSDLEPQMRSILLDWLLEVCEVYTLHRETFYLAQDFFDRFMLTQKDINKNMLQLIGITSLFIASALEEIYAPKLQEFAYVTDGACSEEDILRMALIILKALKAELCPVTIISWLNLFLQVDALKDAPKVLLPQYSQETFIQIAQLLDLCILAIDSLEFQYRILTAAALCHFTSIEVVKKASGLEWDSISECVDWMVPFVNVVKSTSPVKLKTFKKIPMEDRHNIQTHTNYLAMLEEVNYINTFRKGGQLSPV
Q12V: 0.325
L13N: 0.463
R6I: -0.0789
G4Q: 1.2
R6T: 0.102
R5Y: 0.303
L13R: 0.386
Q12S: -0.0611
T1H: 0.774
L2G: 0.7
N11S: 0.0838

Further values, each from its own experiment
PhoQ, residues 284 288 289 292 302 303 TAVSDG — fold induction (PhoP, residues 12 14 15 18 19 NYFTV (Escherichia coli, UniProt P23836); Sort-seq, item: YFP reporter; E. coli; PhoQ-PhoP variant library, together with: 10 µM Mg2+; relative to: high Mg2+ state, higher = stronger signaling): 5.32

Repeated from above (set 3):
R5Y: 0.303
L13R: 0.386
Q12S: -0.0611
T1H: 0.774
L2G: 0.7
N11S: 0.0838
